Experimental data from different studies.
Numbered parts are unrelated; each lists some results of a single study.

Series 1 — technique: RNA Bind-n-Seq; molecule type: RNA; sample: in vitro; concentration: 365 nM; relative to: no-protein control; direction: higher = stronger binding
Target: RNA binding protein fox-1 homolog 2, RRM domain, GST-SBP tag (RBFOX2, Homo sapiens, UniProt O43251-10, residues 100-194)
Notes: natural RNA segment, single round, ends assumed
Residues (chain): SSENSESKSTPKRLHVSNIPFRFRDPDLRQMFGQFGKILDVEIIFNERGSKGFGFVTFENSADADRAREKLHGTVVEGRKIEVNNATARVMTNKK
For `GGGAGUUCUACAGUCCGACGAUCGGCUUUAUAGUAAAUUUGUUUCUAAAUCUAAUAACUUUAAAAUAGAAACUUAAGUAAAUAUGGCUUACACCCUAACACUGGGGUGGUUUUCUUUUCUAAUGUAGCUUUCCUGGAAUUCUCGGGUGCCAA`, “RBNS enrichment (R)” read 0.339.
`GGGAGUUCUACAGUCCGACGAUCAAAUACUUGUGUUUCUAUUAAAUAUACACUACUAAAUACAUGUUAUGUGACUAGUAUUUAUCCUUUACUUCUGUGUUUUCUUAGGAUGUACACUUUUAGAGUUAUAGUGCUGGAAUUCUCGGGUGCCAA` — result for “RBNS enrichment (R)”: 0.352.
Under “RBNS enrichment (R)”, `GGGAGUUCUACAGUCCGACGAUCUGUAUUGGAAGUCAGAUUUCUAGUAGGAAAUGUGGUCAAAUCCCUGUUGGUGAACAAAUGGCCUUUAUUAAGAAAUGGCUGGCUCAGGGUAAGGUCCGAUUCCUACCAGGUGGAAUUCUCGGGUGCCAA` is recorded as 0.608.
`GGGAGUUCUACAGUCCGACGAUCUCCAAAUGAGCUGCUAUAAAACACCUUUCAGGGGCUGAGAUGCAGCUCUGGUGUGAGUCACUUACCUAGCUUAUGUCAGGCCCCUAAAAGUAAUGCAUAAACUGUCAGAAUGGAAUUCUCGGGUGCCAA` — result for “RBNS enrichment (R)”: 0.233.
`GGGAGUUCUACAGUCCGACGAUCUUAAAGGGGAAGUAUUAUUAUAAAAUGAAGAAAUAUGUAUUUCUAAAGGCUAUAUUGCUGUAAACUUAAUUGAUAAAGCUCUGUUUAAUUUAGAGUUUUGAAGAAAUAGUUGGAAUUCUCGGGUGCCAA`: “RBNS enrichment (R)” 0.476.
`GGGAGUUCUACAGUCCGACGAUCUCUAGAACCUUCUUCCGUGGCUCUCAGGCAGCCCAAGGCCCAACACCAGUUGGGAUAAGUGUCAGAGUGAGCACCCCCUCAGCCCGUCCUCCACAAGGGACCCUUGAGAUUGGAAUUCUCGGGUGCCAA` — result for “RBNS enrichment (R)”: 0.295.
For `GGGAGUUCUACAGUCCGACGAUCGCGAGGCAAGGGUUGCACUGGACCAAAGGCUGAGGCUUGGCCAUCUAGCAUUCCAUACAAAAUUGUUUCCUAUAAGCAUUCCUUUUAUUCUCUAUUCUAUCCUGGGUCUGUGGAAUUCUCGGGUGCCAA`, “RBNS enrichment (R)” read 0.729.
For `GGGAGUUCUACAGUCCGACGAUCUAUCGUUUUCUGGUGAUGUUGUGCUAACAAUAAGAAGUACACGGGUUUAUUUCUGUGGCCUGAGAAGGAAGGGACCUCCACGACAGGUGGGCUGGGUGCGAUCGCCGGCUUGGAAUUCUCGGGUGCCAA`, “RBNS enrichment (R)” read 0.471.
For `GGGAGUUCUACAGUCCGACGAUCGCAACUAGCUCCCCUGUCGGCCAGCUAAGAGAGCUGGGACAGUGGAGGCUGGCAGAAGCUGAGACGUGACUGUCUAGGAGUAACACUCAUUAAAGCUUUCAUUUUGGCACUGGAAUUCUCGGGUGCCAA`, “RBNS enrichment (R)” read 0.262.
For `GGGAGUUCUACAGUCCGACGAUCCAGUGCUUGGCAAUCGUCCUUCUUACAGCAGUAAGCAAAAAUUAGCAAGGAACGUGUCCGCAUGGCCUCUCAGCUUGGUAUGUGAAAAGGAAAUAGCAUACUUUUUCAAAUGGAAUUCUCGGGUGCCAA`, “RBNS enrichment (R)” read 1.23.
`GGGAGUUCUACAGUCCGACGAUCAGUCCAGGGGAGAAGCUUCUGCUACUUCAGAGCUUUGCUAAACUAACCUAAUUUGUCCAAAUCACCCCAAAACCACCAUCUCUGACGUAAGCUUCCAUGCGACAGCCUGAUGGAAUUCUCGGGUGCCAA`: “RBNS enrichment (R)” 0.545.
For `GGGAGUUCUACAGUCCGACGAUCUUGAGAUAGCUGUAGUGUUUAUGCCAGAAGUCUCUGGGGACAUCUACUGCUUGUGUCUCUUUGGUGCAAUAAUUAAAAUGGAAGGAGGAGCUGAACUGGGAACCCUACAGUGGAAUUCUCGGGUGCCAA`, “RBNS enrichment (R)” read 0.493.

Series 2 — technique: RNA Bind-n-Seq; molecule type: RNA; sample: in vitro; concentration: 100 nM; relative to: input RNA pool; direction: higher = stronger binding
Target: RING finger protein unkempt homolog, zinc fingers 1-6, SBP tag (UNK, Homo sapiens, UniProt Q9C0B0, residues 30-357)
Sequence of UniProt Q9C0B0 (30-357, looked up): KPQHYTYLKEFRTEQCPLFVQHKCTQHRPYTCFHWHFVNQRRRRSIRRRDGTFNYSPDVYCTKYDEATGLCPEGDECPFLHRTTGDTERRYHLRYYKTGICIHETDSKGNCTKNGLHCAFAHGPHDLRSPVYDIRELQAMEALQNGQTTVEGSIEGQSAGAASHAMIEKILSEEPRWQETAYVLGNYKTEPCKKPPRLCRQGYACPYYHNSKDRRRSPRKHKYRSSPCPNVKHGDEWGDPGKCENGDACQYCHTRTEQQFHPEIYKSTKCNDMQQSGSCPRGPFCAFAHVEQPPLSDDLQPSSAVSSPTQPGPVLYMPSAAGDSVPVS
Notes: RNA with constant flanks, vertebrate orthologous sites, ends assumed
With `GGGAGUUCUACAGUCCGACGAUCGUGGGGACAUACUCUGGGGAGCUGCCGGGCACUUACAUCGUUUGAUUUAUGACCUUGACUUACUAGAUAGGCUUUUUUUUUAAUUUAAAAAUAUUGACUUCACAAAAGUUUAUUCUAAGGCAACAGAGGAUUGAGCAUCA` the bound/input enrichment was 0.793 ratio.
`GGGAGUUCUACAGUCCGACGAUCUACCUCCUGAGCUUCUAGCUUUCAAGCUGUGGCUAUUUUUUUUUUUCUUUUUCUUUUCUUUAGAAUUUUUCCCCAUUUCCCACCUUCUCUUCCCCUGUUCCCAAGGUCUCACUCAUGGAUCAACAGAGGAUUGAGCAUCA` gave a bound/input enrichment of 3.02 ratio.
With `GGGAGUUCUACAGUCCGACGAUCCUGUUGUUAAGCACUGUGUUCCAGACUGUGUCUGACUUGAGUGUGACCUAGGAGAUUUUAUUGUUUUAUUUUAAUGAAGCCCUGCUUGCCGCAGAGCAGCCGGGAGAGCAGCGUCCACCACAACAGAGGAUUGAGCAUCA` the bound/input enrichment was 0.896 ratio.
With `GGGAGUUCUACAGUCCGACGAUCGAUGCAGUGUAUAAAUUUUCCAAGGCAGUGACUUCAGCUUUAUAUACAUUGUUAGUGUUACCAUAAUUUACAUUUAAACUUUUAGAUCGGAUUGUUUGCUGUUGCUGUGUGUGAAGACCACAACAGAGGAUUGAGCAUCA` the bound/input enrichment was 1.5 ratio.
The bound/input enrichment of `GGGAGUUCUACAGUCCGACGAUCUCAGAUCUAAGCCAACAGCAGUUCUAAAAUGCUAUUUAUUUGUGUCUGUAAGUUUGUACAUAGUAAUAUCAACCUCAUAUUGUUGCAGGUGUUUUUUUUUUUUUUUCCCAUAAGUUUUGACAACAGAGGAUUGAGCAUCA` is reported as 2.76 ratio.
For `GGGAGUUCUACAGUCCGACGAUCAGUAUCCCAGUUGUACCGUGUUGAGUUGGCAUUGUACAGAAAUUAACAGCCAUAUUGGUCUAGAAACGUUAAACUUAAUUUUUUUCCAUUUGUACAGGGGUAACGCACUGUAUUAAAUAUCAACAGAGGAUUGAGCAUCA`, the bound/input enrichment was 1.15 ratio.
With `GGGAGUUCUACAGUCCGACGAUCUCCCAGUACCUUGAUAAAAAGUGUGGACUGGUUGCUCGUGUUUUCUCUAUUCUUUUUAAUUAGUUUCAUUAUGUAUGCUACCAUUCGAACUGAGAAUAUUCGGUGGCUAAUUCCAGGACACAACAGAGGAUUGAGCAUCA` the bound/input enrichment was 1.28 ratio.
For `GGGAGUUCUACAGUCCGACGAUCUCUAUACAAUUUUAAAAAUACUUCCUCAUAGGAUGCUUUGGGCCUUCAUCUAUUUAAUCAUAGCUACAUAUCUAUUUUUUAUAAGUAGCAGUACACAUUCAAAGGGGUAUUCCUAGCUCACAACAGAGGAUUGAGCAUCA`, the bound/input enrichment was 0.728 ratio.
With `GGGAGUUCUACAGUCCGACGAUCAUGUAGUUUGUUUUUAAUUUCAAGCAAAGUCUUAUUGUACUUGAAUGUGCCCUGUUUUGUUAGCACACCUAGACUUGCUGUAACUGUACUCAUGUCCCAGUAUGUACGUUCUUUCUAUGACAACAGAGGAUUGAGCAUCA` the bound/input enrichment was 1.21 ratio.
`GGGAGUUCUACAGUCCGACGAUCUGGGUUUGGGGUAGAAGGGUGGGAAGGGGCAGGAUAAGUGGAAUCUUUAGGGUUUAUGGGAGGUAGGGGCAGUUAGUUCUAAGUGGGCUUUCAUGUUACCUGAUGUGUGAGGGUAAGGACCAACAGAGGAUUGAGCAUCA` gave a bound/input enrichment of 1.03 ratio.
The bound/input enrichment of `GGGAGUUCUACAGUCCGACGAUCUUUCACUGGCACCUCCCUUCCCGCUAUUCUGAAACUUCCCGCUAUUCUGAAAAAAAUUUAUUUGGAAUCUUGUUUUCUCAUUCAUGCUCUCUGCAUCAGUCAUGCUUAGCCCAUAAUUAACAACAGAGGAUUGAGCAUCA` is reported as 1.39 ratio.

Series 3 — technique: protein-binding microarray; molecule type: double-stranded DNA, one strand shown; sample: in vitro; concentration: 940 nM top; notes: 60-bp whole probe; with: salmon DNA 0.4 mg/ml; relative to: random background probes; direction: higher = stronger binding; constant ends, left off below: GCCTAGCAC … GTCTTGATTCGCTTGACGCTGCTG
Target: Interferon regulatory factor 5, full length, phosphomimetic (IRF5, Homo sapiens, UniProt Q13568-2, residues 1-514, S451D/S453D/S456D/S462D)
`TTAGATTCCAGATTCGATTAGTGCTAG` — result for “fitted relative affinity”: 0.577 z-score.
Under “fitted relative affinity”, `GACGGTTTCCTTTTCCCGACGTGCTAG` is recorded as 3.58 z-score.
`AGGAAAGTGTTTCTCAACCAGTGCTAG` — result for “fitted relative affinity”: -0.0105 z-score.
`TTAGGACTGCTTCTCCTTAAGTGCTAG` — result for “fitted relative affinity”: -0.0159 z-score.
`AATCTTTTCACTTTCTTTAAGTGCTAG`: “fitted relative affinity” 2.21 z-score.
`GTATATATAATATATATTCATGTGCTA` — result for “fitted relative affinity”: 0.125 z-score.
`TTCTTTTTTTTCTTTAAAAGGTGCTAG` — result for “fitted relative affinity”: 0.947 z-score.
For `GACGATAACAGACTGGAGACGTGCTAG`, “fitted relative affinity” read -0.46 z-score.
`TCAACTTTAGGTTCCCAACTGTGCTAG` — result for “fitted relative affinity”: -0.00278 z-score.
Under “fitted relative affinity”, `TTAGATATCGGTACTGGATTAGTGCTA` is recorded as 1.03 z-score.
`CTGTTTTTGCTTTCTTTTTGGTGCTAG`: “fitted relative affinity” 2.56 z-score.
`GACGAACAGAGACTGGAGACGTGCTAG` — result for “fitted relative affinity”: -0.492 z-score.
For `GACGATATCTGGTTTCGAGACGTGCTA`, “fitted relative affinity” read 3.35 z-score.
For `TCATCTTCCCCTCTCTTACTGTGCTAG`, “fitted relative affinity” read 1.17 z-score.
For `TTAGAACTGAGATTCGATTAGTGCTAG`, “fitted relative affinity” read 0.118 z-score.
`GACGGACTCCTTCTCCTGACGTGCTAG` — result for “fitted relative affinity”: 0.117 z-score.
`GACGGACTGGGTTTCGGGAAGTGCTAG` — result for “fitted relative affinity”: 2.44 z-score.
`TTAGGACTGGGGACTGGGTCAGTGCTA` — result for “fitted relative affinity”: -0.435 z-score.

Series 4 — organism: Saccharomyces cerevisiae; effect on: cell growth; technique: competitive growth deep sequencing; molecule type: peptide; notes: peptide tiling library; with: cyclin E2-Cln2 fusion; direction: direction not given
`DTERAHSTLDEDLERW` has an enrichment score of 1.25.
The enrichment score of `VLVRTSACRSLFGPVD` is reported as -0.178.
With `PAKRRLELGE` the enrichment score was 1.21.
With `PKRAKRKLYTSEISSP` the enrichment score was 0.315.
The enrichment score of `SMTDFYHSKRRLIFSK` is reported as -1.05.
`PARRRLRLSVDEVSSP` gave an enrichment score of -0.394.
The enrichment score of `FQDSGYNELKSCSFDN` is reported as 0.528.
The enrichment score of `DGCSPIKNWSPMRL` is reported as 0.508.
With `KPKPVKPVTFSTGIKM` the enrichment score was 1.99.
`TARRIFQEPTEPKTKA` gave an enrichment score of 0.0884.
The enrichment score of `SAVPLILPQAPSGPSY` is reported as 2.49.
`KPHVSDEEEEEPPFYH` has an enrichment score of 1.21.
`IVLICAKRSLCAAFSV` has an enrichment score of -0.793.
`GLPDFVFQQQPVESEA` gave an enrichment score of 0.928.
`SSEVARHLLFQSHM` gave an enrichment score of -0.863.

For quick reference, copied from above (series 4):
The enrichment score of `SMTDFYHSKRRLIFSK` is reported as -1.05.
`KPHVSDEEEEEPPFYH` has an enrichment score of 1.21.
`TARRIFQEPTEPKTKA` gave an enrichment score of 0.0884.
The enrichment score of `DGCSPIKNWSPMRL` is reported as 0.508.
`IVLICAKRSLCAAFSV` has an enrichment score of -0.793.
